# Assay results pooled from the literature.
# Parts stem from different laboratories: compare values within a part only.

# Sample 1
# Target: Sal-like protein 4, full length isoform B (SALL4, Homo sapiens, UniProt Q9UJQ4-2, residues 1-616)
# Method: universal PBM
# Molecule type: double-stranded DNA, one strand shown
# Medium: in vitro
# Concentration: not given
# Setting: 8-mer, flanks averaged, mean of replicates
# Direction: higher = stronger binding
Sequence,E-score
GCCGTTAC,-0.159
CAGGGATA,0.0107
TAAGTAGA,0.169
ACGGCTAA,0.0235
CTCAATAA,0.242
CAGCGTTC,-0.142
ACGGTGAA,0.0545
ACCGACGA,-0.163
CGGTTATA,0.256
ATCACGCA,-0.0155
AGACATTC,0.188
ATTGTATG,0.277
CTCTTCTA,0.0729
CGGACCCA,-0.182
AGTGTTTA,0.224
CTCGTCGC,-0.246
GATTATCC,0.0326
GACAGAGA,0.00413
AACAAAGG,0.0819
AGTCGCTG,-0.301
ATGCACAG,-0.037

# Sample 2
# Target: Interferon regulatory factor 7, full length, phosphomimetic (IRF7, Homo sapiens, UniProt Q92985, residues 1-503, S101K/S471D/S472D/S475D/S476D/S477D/S483D/S484D/S487D)
# Sequence of UniProt Q92985 (whole entry, unmodified, looked up): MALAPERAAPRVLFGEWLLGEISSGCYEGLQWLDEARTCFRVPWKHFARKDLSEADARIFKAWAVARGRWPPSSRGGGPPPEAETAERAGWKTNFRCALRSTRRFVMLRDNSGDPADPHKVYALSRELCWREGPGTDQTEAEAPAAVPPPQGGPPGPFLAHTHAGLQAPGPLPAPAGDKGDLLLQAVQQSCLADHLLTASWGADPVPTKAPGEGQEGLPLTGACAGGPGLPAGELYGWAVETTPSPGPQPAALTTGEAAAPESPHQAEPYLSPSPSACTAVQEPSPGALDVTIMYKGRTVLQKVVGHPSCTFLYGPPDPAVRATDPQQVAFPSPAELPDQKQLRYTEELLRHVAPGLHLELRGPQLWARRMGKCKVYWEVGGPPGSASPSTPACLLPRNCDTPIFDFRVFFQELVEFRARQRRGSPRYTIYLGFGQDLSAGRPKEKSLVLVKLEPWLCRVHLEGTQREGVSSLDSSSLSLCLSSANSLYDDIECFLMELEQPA
# Method: protein-binding microarray
# Molecule type: double-stranded DNA, one strand shown
# Medium: in vitro
# Concentration: 250 nM
# Setting: 60-bp whole probe
# With: salmon DNA 0.4 mg/ml
# Relative to: random background probes
# Direction: higher = stronger binding
# All sequences stand within: GCCTAGCAC … GTCTTGATTCGCTTGACGCTGCTG
Sequence,log fluorescence
GACGGTTTCGGTTTCCGGACGTGCTAG,14.4 z-score
CTCTTTGTTTCACTTCCTGGTGTGCTA,3.77 z-score
TTAGATATCAGTATCGCTTAGTGCTAG,0.26 z-score
TCATATATACACTTATGACTGTGCTAG,0.546 z-score
TTAGGACAGGGGTTTCGGTTAGTGCTA,5.8 z-score
GACGATCTCAAACTGGAGACGTGCTAG,-0.09 z-score
TTAGCTATCGACACTGGGTTAGTGCTA,-0.347 z-score
TTCGGTTTCGGGTTTCGGTTAGTGCTA,12.7 z-score
TTAGATTTCGGGTATCGATTCGTGCTA,3.35 z-score
GACGGTATCGGTTTCGGCACGTGCTAG,5.44 z-score
TTAGGTATCGGGACTGGGATAGTGCTA,0.0609 z-score
TTAGATGCCAGTTTCGATTAGTGCTAG,7.85 z-score
GACGATATCAGACTGGAGCCGTGCTAG,-0.49 z-score
TCACCTCACAGTTTGTAACTGTGCTAG,0.0571 z-score
GACGGACTGTGGTTTCGGGACGTGCTA,2.32 z-score
GACGATCTCAGTTTCAAGACGTGCTAG,0.298 z-score
GACGGTTTGGGTTCCGGGACGTGCTAG,0.545 z-score
AGCTGTTTCTGTGTCACAGAGTGCTAG,0.195 z-score
TTAGAACTGGGGACTGGATTGGTGCTA,-0.227 z-score

# Sample 3
# Target: Histone acetyltransferase KAT6A, winged helix 1, GST fusion (KAT6A, Homo sapiens, UniProt Q92794, residues 1-85)
# Method: protein binding microarray
# Molecule type: double-stranded DNA, one strand shown
# Medium: in vitro
# Concentration: not given
# Setting: 8-mer, flanks averaged, mean of 2 arrays, mostly near background
# Relative to: not given
# Direction: higher = stronger binding
# Construct (chain): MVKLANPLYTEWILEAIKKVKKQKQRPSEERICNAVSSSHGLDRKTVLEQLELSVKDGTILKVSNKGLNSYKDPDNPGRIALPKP
Sequence,E-score
GGACAATA,-0.0116
CGGACATC,0.161
CTGTGCTA,-0.0347
AAATAGAC,-0.133
CATAAACA,-0.00677
CCATTGGC,-0.119
CCAAAGCC,0.00734
AAGCGATT,0.0184
AAGGCCCG,0.269
CCGTATAA,0.32
CTTTATAA,-0.162
CATTCGTA,-0.155
ACGCACAA,-0.0704
GTCTCTGA,-0.0923
GAATGGCA,0.0332
ATAACAGG,-0.196
AGGAACCC,-0.126
ACCCACCA,-0.223
CCTTTCCG,0.192
ATCGGGGG,0.101
AACCTTAC,-0.0919
AGCCCGCT,0.264
CTAAATGC,-0.0542
CACAGCAC,0.0119
AGAGAAGG,-0.139

# Sample 4
# Target: Prothrombin, mature alpha-thrombin (F2, Homo sapiens, UniProt P00734)
# Method: aptamer microarray, sandwich
# Molecule type: DNA with 2'F-ANA
# Medium: in vitro
# Concentration: 200 nM
# Setting: whole 15-mer aptamer, many near background
# With: Cy3 exosite-II aptamer, 400 nM
# Direction: higher = stronger binding
# Sequence: GGTTGGTGTGGTTGG
Modification,mean fluorescence intensity [a.u.]
2'F-ANA at 1 4 6 10 11 12 13,52.8
2'F-ANA at 6 8 9 14,247
2'F-ANA at 2 4 5 6 8 9 11 12,120
2'F-ANA at 2 3 6 7 8 9 11 12 14 15,325
2'F-ANA at 1 4 5 6 7 10 11 12 13,46.1
2'F-ANA at 3 5 7 8 10 11 13 15,62.4
2'F-ANA at 1 3 4 5 6 8 9 10 11 13 14 15,54
2'F-ANA at 3 5 6 7 9 11 14 15,53
2'F-ANA at 1 4 5 10 12 14,43.5
2'F-ANA at 1 4 5 7 8 10 11 13 14 15,49.3
2'F-ANA at 1 2 6 7 9 11 12,206
2'F-ANA at 2 10 11 12 13 14 15,82.2
2'F-ANA at 1 2 6 7 9 10,53.1
2'F-ANA at 1 3 5 7 8 11 14 15,49.5
2'F-ANA at 1 4 6 8 9 10 14 15,49.8
2'F-ANA at 1 2 3 4 5 6 7 10 11 12 14,88.6
2'F-ANA at 1 2 3 5 8 9 10 12 13,50.6

# Some of these lines once more (sample 2):
Sequence,log fluorescence
TCATATATACACTTATGACTGTGCTAG,0.546 z-score
TTAGGACAGGGGTTTCGGTTAGTGCTA,5.8 z-score
GACGATCTCAAACTGGAGACGTGCTAG,-0.09 z-score
TTAGCTATCGACACTGGGTTAGTGCTA,-0.347 z-score
TTCGGTTTCGGGTTTCGGTTAGTGCTA,12.7 z-score
TTAGATTTCGGGTATCGATTCGTGCTA,3.35 z-score
GACGGTATCGGTTTCGGCACGTGCTAG,5.44 z-score
TTAGGTATCGGGACTGGGATAGTGCTA,0.0609 z-score
TTAGATGCCAGTTTCGATTAGTGCTAG,7.85 z-score
